# Published values of several laboratories.
# Protocols differ between the studies behind these lines. Several values in a cell are separate wells, animals, samples, runs or records. ± gives the spread as reported.
# Aryl hydrocarbon receptor: Aryl hydrocarbon receptor (Danio rerio, UniProt Q9YGV3)
# HDAC6 ZnF-UBD domain: Protein deacetylase HDAC6, ZnF-UBD domain (HDAC6, Homo sapiens, UniProt Q9UBN7)
# UniProt O76090, sequence (whole entry, unmodified, looked up): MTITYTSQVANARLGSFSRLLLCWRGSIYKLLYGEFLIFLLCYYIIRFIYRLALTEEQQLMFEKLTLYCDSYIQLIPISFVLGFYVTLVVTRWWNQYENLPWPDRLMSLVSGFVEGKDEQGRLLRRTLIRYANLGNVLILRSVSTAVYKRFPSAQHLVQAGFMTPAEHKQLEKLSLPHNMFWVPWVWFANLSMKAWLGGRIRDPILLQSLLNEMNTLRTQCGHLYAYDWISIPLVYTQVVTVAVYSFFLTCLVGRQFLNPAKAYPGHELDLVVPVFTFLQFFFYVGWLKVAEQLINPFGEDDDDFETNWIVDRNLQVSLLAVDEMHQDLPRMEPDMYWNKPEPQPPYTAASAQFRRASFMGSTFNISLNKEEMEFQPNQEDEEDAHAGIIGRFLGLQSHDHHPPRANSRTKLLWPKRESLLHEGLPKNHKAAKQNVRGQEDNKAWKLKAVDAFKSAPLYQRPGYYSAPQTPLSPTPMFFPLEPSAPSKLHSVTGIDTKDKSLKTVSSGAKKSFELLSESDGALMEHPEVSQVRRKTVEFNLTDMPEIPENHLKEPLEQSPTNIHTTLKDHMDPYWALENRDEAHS
# UniProt P00519, sequence (whole entry, unmodified, looked up): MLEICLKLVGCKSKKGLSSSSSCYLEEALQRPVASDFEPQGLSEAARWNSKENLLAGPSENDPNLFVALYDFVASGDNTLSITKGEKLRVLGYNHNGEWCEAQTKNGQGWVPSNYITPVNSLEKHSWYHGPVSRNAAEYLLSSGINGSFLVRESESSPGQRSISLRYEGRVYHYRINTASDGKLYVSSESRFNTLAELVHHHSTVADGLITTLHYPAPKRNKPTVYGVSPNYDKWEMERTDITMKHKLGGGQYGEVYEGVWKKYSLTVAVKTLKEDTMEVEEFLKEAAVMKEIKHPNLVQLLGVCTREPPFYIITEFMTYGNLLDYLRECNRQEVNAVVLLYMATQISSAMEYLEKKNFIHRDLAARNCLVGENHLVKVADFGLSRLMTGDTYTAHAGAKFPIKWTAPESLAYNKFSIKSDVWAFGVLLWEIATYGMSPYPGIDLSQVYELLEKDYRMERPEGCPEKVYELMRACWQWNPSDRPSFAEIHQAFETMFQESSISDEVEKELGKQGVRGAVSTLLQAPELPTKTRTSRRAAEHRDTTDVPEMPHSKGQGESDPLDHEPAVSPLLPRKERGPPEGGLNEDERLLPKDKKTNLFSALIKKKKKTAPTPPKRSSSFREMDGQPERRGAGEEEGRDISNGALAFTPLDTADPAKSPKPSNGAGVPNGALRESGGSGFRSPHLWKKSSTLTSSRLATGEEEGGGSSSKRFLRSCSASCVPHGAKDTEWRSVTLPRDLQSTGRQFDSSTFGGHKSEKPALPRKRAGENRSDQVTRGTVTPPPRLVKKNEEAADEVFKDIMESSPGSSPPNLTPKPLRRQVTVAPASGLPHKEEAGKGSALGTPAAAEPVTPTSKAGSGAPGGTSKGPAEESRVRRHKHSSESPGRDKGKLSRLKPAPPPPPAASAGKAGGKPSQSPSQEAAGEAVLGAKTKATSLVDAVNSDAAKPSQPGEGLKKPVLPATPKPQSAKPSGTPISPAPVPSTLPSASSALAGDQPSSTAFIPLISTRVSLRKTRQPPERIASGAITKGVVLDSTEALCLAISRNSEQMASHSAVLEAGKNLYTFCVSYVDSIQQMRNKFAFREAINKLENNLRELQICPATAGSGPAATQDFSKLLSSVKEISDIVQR
# UniProt P11388, sequence (whole entry, looked up): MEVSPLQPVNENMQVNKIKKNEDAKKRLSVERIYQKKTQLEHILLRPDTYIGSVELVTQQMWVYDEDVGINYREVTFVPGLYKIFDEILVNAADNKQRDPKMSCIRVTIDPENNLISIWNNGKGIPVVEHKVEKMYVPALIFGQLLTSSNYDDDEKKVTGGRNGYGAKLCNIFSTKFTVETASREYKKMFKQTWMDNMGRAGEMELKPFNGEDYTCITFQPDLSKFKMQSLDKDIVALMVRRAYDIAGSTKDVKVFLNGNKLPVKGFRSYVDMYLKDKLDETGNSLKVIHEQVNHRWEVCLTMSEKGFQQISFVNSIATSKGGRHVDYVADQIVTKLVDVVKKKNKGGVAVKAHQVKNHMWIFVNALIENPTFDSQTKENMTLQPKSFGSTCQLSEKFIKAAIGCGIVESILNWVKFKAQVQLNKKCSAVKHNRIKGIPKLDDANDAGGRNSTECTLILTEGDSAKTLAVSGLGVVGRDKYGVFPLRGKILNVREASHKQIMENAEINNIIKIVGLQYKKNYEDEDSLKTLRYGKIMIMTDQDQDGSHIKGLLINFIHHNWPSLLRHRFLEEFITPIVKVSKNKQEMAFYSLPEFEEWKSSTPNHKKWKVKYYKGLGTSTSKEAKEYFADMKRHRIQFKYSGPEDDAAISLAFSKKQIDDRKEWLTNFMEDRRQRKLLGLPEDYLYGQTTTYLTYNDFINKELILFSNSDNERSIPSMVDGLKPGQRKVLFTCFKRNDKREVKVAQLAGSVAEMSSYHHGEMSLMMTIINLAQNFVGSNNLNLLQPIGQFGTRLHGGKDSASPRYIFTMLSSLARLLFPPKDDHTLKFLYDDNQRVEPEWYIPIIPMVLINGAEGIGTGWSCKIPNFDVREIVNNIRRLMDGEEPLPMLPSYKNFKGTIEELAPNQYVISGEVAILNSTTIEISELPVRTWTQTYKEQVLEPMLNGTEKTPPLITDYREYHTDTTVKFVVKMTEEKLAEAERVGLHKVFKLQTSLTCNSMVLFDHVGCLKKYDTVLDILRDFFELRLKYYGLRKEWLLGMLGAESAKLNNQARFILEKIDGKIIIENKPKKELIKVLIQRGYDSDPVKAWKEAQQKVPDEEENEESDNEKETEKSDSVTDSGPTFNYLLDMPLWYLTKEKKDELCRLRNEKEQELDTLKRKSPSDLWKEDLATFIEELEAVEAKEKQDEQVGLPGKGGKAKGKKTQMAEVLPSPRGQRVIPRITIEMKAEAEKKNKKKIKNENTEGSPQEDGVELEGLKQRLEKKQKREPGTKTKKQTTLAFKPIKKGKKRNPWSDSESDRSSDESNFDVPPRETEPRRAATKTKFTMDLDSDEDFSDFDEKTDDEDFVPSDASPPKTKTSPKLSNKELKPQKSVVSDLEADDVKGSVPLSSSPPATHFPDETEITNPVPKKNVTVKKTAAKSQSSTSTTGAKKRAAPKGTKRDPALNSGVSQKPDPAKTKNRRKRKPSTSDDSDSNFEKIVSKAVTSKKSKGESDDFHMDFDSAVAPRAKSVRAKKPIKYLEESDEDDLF
# UniProt Q9UBN7, sequence (whole entry, looked up): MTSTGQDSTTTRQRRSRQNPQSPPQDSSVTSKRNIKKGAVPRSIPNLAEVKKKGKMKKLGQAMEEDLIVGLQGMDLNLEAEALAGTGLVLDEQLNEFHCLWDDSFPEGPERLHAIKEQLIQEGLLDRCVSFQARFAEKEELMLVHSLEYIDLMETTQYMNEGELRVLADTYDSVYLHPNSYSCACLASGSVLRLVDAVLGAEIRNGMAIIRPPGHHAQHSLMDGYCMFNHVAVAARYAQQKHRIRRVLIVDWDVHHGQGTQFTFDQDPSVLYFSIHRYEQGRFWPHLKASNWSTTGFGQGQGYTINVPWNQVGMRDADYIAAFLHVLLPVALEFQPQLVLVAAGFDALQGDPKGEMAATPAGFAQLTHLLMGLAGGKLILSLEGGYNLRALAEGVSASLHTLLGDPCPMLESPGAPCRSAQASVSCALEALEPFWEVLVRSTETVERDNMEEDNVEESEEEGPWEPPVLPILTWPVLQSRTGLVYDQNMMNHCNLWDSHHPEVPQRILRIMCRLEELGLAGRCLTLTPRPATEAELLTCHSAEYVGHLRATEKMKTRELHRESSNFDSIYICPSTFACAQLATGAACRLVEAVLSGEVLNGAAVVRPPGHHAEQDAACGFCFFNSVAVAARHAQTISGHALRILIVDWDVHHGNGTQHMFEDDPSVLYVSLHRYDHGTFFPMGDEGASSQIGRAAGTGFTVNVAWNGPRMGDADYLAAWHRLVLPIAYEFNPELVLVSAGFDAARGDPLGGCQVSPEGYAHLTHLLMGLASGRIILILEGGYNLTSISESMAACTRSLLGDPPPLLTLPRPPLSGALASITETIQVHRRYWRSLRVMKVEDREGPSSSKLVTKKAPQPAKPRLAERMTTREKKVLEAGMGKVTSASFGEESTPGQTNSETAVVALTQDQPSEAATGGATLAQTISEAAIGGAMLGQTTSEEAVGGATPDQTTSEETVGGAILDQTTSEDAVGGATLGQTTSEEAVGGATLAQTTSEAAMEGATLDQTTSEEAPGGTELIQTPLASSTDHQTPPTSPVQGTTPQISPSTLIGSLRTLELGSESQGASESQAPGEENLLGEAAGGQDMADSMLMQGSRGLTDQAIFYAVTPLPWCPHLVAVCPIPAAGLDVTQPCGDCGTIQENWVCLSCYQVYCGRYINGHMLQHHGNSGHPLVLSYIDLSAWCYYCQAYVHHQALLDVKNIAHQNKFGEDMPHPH
# UniProt Q01105, sequence (whole entry, looked up): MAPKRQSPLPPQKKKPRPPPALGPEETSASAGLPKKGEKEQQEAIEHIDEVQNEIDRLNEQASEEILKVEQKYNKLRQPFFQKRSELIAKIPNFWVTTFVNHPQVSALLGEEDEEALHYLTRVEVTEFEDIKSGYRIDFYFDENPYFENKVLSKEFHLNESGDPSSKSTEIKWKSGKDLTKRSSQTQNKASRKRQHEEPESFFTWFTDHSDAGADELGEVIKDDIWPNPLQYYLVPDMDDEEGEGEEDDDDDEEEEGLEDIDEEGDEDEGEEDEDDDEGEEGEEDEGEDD
# UniProt P25963, sequence (whole entry, unmodified, looked up): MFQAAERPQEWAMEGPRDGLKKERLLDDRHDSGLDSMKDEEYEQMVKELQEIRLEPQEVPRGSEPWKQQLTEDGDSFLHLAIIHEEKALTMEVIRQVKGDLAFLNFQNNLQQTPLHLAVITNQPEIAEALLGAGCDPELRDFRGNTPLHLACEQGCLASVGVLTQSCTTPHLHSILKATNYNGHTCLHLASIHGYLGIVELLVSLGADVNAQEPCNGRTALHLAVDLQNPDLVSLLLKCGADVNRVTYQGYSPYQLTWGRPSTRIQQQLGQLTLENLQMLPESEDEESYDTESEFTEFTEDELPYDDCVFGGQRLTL
Compound,target or system,assay,test system,setting,how to read,measurement,result
Cn1cc(-c2ccc(-c3cncc(Cl)c3N3CCC4(CCNC4=O)CC3)cc2)cn1,COLO 205,"gene expression, microarray, measured: SAT1 mRNA",,"concentration not given, 2 h",baseline: untreated cells,log2 fold change,4.06
O=S(=O)(O)C1CCNCC1,"GABA-A receptor; alpha-1/beta-2/gamma-2 (Rattus norvegicus, UniProt P18508+P62813+P63138)","membrane potential, agonist, QP-DHM fluorescence",HEK293 expressing GABAA,10 µM,"baseline: 10 µM GABA, direction not given",agonist score,0.96
O=C(COP(=O)(O)O)[C@@H](O)[C@H](O)[C@H](O)COP(=O)(O)O,"Small ribosomal subunit protein mS35 (Homo sapiens, UniProt P82673)","thermal proteome profiling, measured: MRPS35",HepG2 cell lysate,"concentration not given, 57 over 37 °C",baseline: compound over control,thermal stability ratio,0.389 and 0.591 and 0.5
CC(=O)Nc1ccc(O)cc1,"BRD4 (Homo sapiens, UniProt O60885)","19F NMR, measured: tyrosine 65",,95 µM,baseline: free protein,chemical shift change,0.009 ppm
CC[C@H](C)[C@H](NC(=O)[C@H](CCCNC(=N)N)NC(=O)[C@H](Cc1c[nH]cn1)NC(=O)[C@H](CCCNC(=N)N)NC(=O)[C@H](CC(=O)O)NC(=O)[C@H](CC(=O)O)NC(=O)[C@@H](NC(=O)[C@H](CC(=O)O)NC(=O)[C@@H]1CCCN1C(=O)[C@@H](N)CC(C)C)[C@@H](C)O)C(=O)N[C@@H](CCC(=O)O)C(=O)N[C@@H](CCC(=O)O)C(=O)N[C@@H](CCCCN)C(=O)N[C@@H](CCCNC(=N)N)C(=O)N[C@@H](CCCCN)C(=O)N[C@@H](CCCNC(=N)N)C(=O)N[C@H](C(=O)N[C@@H](Cc1ccc(O)cc1)C(=O)N[C@@H](CCC(=O)O)C(=O)N[C@H](C(=O)N[C@@H](Cc1ccccc1)C(=O)N[C@@H](CCCCN)C(=O)N[C@@H](CO)C(=O)N[C@H](C(=O)N[C@@H](CCSC)C(=O)N[C@@H](CCCCN)C(=O)N[C@@H](CCCCN)C(=O)N[C@@H](CO)C(=O)N1CCC[C@H]1C(=O)N[C@@H](Cc1ccccc1)C(=O)N[C@@H](CC(N)=O)C(=O)NCC(=O)N1CCC[C@H]1C(=O)O)[C@@H](C)CC)[C@@H](C)O)[C@@H](C)O,"NF-kappa-B inhibitor alpha (Homo sapiens, UniProt P25963)","binding, ITC",,"293 K, 150 mM NaCl",,ΔG,-8 ± 0.8 kcal/mol
Nc1ccc2ccc3cccc4ccc1c2c34,Aryl hydrocarbon receptor,"reporter gene, agonist, luciferase reporter",ZF-4,30000 µM,baseline: vehicle control,fold change,1.04
CCCCCCCCCCCCC/C=C/[C@@H](O)[C@H](CO)NC(=O)CCCCCCCCCCCCCCC,"Protein SET (SET, Homo sapiens, UniProt Q01105)","lipid binding, GFP pull-down LC-MS/MS",A549 overexpressing GFP-tagged protein,,baseline: eluate plus flow-through,lipid fraction bound,2.7%
O=C(O)CCn1sc2ccccc2c1=O,HDAC6 ZnF-UBD domain,,,,,Kd,> 1000 µM
Nc1ccc(C(=O)O)cc1,"BEST1, with wild-type BEST1 (Homo sapiens, UniProt O76090, D302A)","ion current, whole-cell patch clamp",HEK293 co-expressing mutant and wild-type,"concentration not given, voltage -40 mV",,current density,-7.11 pA/pF and -6.24 pA/pF and -9.04 pA/pF and -3.02 pA/pF and -3.11 pA/pF and -5.81 pA/pF
O=c1nc(SCc2cc(F)cc(C(F)(F)F)c2)nc(SCc2ccc3nc(Cl)ccc3c2)[nH]1,"TOP2A (Homo sapiens, UniProt P11388)",ATPase activity,,"15.6 µM, together with: ATP 0.5 mM",,ATP hydrolysis rate,1.94 µM/min and 1.45 µM/min
CN(C)c1nccc(-c2cnc3ncccn23)n1,"ABL1 (Homo sapiens, UniProt P00519, H396P)",KINOMEscan,,1 µM,,remaining binding,48% and 73%
O=C(CCCc1ccccc1)C(=O)NCCc1ccc(Oc2ccc(C(F)(F)F)cn2)cc1,"Carboxylesterase 1D (Mus musculus, UniProt Q8VCT4)","inhibitor, measured: CES1D","mouse, BAT cytosol proteome",10 µM,"baseline: DMSO, lower = stronger inhibition",probe-enriched protein abundance,102000 a.u.
c1ccc2c(c1)-c1cccc3c1c-2cc1ccccc13,Aryl hydrocarbon receptor,"reporter gene, agonist, luciferase reporter",ZF-4,10000 µM,baseline: vehicle control,fold change,8.29
Cn1c2c(Cl)c(Cl)ccc2c2cc(N)[nH]c(=O)c21,"RPS6KA2 (Homo sapiens, UniProt Q15349)",thermal shift,,"10 µM, 2 µM protein",higher = stronger binding,ΔTm,1 °C
Cc1cc2ccccc2c2ccccc12,"AHR (Homo sapiens, UniProt P35869)","reporter gene, agonist, yeast LacZ reporter",Saccharomyces cerevisiae,,,maximum response,126 LacZ units
O=C(O)c1ccc(Nc2ncc3c(n2)-c2ccc(Cl)cc2C(c2c(F)cccc2F)=NC3)cc1,human PAK4(h),kinase activity,,1 µM,,remaining activity,96%
CC[C@@H]1[C@H](F)C(=O)N[C@@H]1COc1nccc2cc(C(N)=O)c(OC)cc12,"STK3 (Homo sapiens, UniProt Q13188)","ATP-site probe binding, ActivX profiling, measured: MST2",THP-1 cell lysate,"0.2 mM, Lys1 site",,inhibition,-9.3%
NC(=O)c1cnc2[nH]ccc2c1N[C@@H]1[C@@H]2CC3C[C@H]1C[C@@](O)(C3)C2,,flow cytometry,"Caucasian healthy men, blood","oral, 20 mg single dose, 24 h",baseline: baseline,total memory T-cell change,-1.03%
O=C(O)CCn1nnc(-c2ccccc2)n1,HDAC6 ZnF-UBD domain,,,,,Kd,232 µM
CC(C)C[C@H](NC(=O)C[C@H](O)[C@H](CC(C)C)NC(=O)[C@H](Cc1c[nH]cn1)NC(=O)CNC(=O)[C@@H](NC(=O)[C@H](C)NC(=O)[C@H](Cc1c[nH]c2ccccc12)NC(=O)[C@H](CCC(N)=O)NC(=O)[C@@H](Cc1ccccc1)NC(=O)COCCOCCNC(=O)CCC(C(=O)O)N1CCN(CC(=O)O)CCN(CC(=O)O)CCN(CC(=O)O)CC1)C(C)C)C(N)=O (some centres unmarked) [lutetium-177 labelled],,,"BALB/c nu/nu mice, large intestine","250 pmol, 1 h, together with: PA 300 µg",,tissue uptake,0.9 ± 0.2 %ID/g

# A few entries again:
Compound,target or system,assay,test system,setting,how to read,measurement,result
O=C(CCCc1ccccc1)C(=O)NCCc1ccc(Oc2ccc(C(F)(F)F)cn2)cc1,"Carboxylesterase 1D (Mus musculus, UniProt Q8VCT4)","inhibitor, measured: CES1D","mouse, BAT cytosol proteome",10 µM,"baseline: DMSO, lower = stronger inhibition",probe-enriched protein abundance,102000 a.u.
